Published values of several laboratories.
Numbered parts are unrelated; each lists some results of a single study.

Sample 1 — technique: universal PBM; molecule type: double-stranded DNA, one strand shown; sample: in vitro; concentration: 600 nM; reading: higher = stronger binding
Target: Sal-like protein 4, full length isoform A (SALL4, Homo sapiens, UniProt Q9UJQ4, residues 1-1053)
Sequence of UniProt Q9UJQ4 (whole entry, looked up): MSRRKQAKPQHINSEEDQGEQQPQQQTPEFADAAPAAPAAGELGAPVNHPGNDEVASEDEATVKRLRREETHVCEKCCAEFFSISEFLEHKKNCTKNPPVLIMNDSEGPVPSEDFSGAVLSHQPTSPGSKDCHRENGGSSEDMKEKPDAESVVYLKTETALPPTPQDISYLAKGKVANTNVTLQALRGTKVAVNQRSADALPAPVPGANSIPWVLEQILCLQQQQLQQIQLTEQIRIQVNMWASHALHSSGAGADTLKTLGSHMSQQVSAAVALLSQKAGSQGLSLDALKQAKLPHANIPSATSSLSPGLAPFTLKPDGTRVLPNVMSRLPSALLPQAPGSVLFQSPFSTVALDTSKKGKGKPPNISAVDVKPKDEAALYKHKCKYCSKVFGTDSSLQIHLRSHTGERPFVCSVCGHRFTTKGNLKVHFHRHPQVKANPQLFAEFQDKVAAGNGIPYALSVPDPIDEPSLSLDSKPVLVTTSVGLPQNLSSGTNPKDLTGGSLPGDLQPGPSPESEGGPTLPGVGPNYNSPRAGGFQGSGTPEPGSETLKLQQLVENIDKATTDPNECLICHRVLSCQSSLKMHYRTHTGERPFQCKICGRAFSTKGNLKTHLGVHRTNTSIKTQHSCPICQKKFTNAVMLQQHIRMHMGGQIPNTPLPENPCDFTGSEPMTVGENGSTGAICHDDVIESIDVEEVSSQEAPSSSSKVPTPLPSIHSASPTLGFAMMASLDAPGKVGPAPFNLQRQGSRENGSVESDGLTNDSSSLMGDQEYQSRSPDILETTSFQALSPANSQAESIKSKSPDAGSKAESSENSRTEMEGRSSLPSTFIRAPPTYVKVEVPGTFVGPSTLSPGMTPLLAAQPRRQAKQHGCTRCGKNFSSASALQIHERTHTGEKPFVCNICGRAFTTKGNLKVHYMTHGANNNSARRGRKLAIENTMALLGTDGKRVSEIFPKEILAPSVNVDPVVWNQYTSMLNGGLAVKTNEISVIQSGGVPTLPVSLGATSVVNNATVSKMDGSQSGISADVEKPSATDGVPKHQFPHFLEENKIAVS
Notes: 8-mer, flanks averaged, mean of replicates
Oligonucleotide | E-score
CAAGTATC | 0.03
TAGGAAAA | 0.231
AGCCTTAT | 0.16
CCTGTAGA | 0.0614
CGTGAGCA | -0.259
GATGACCC | -0.0831
AGTCTCAA | -0.00785
CACCATGC | -0.321
ACAGATCA | -0.0247
CAGCCTGA | -0.13
AACAAAGC | 0.157
GAAGGTTA | 0.0627
CCGGCCCA | -0.409
ATAGGCGA | 0.0512
AAGGTGAG | -0.113
CGCTGAAA | -0.0203
ATTACAGG | 0.177
CGACCACC | -0.23
GAATATTC | 0.25
ACTCCGGC | -0.188
TACCTGAA | 0.248
AACACCCA | -0.154
AGCGAATC | 0.0364
AGTACTTC | 0.162
AAGTTATG | 0.378

Sample 2 — technique: competition protein-binding microarray; molecule type: double-stranded DNA, one strand shown; sample: in vitro; concentration: 2 µM; added: Cbf1 competitor, 0.05 µM; reading: higher = stronger binding; shared flanks, not repeated: … GTCTTGATTCGCTTGACGCTGCTG
Target: Phosphate system positive regulatory protein PHO4, full length, GST-tagged (PHO4, Saccharomyces cerevisiae, UniProt P07270, residues 1-312)
Notes: whole 60-bp probe, lowest competitor level
Construct (chain): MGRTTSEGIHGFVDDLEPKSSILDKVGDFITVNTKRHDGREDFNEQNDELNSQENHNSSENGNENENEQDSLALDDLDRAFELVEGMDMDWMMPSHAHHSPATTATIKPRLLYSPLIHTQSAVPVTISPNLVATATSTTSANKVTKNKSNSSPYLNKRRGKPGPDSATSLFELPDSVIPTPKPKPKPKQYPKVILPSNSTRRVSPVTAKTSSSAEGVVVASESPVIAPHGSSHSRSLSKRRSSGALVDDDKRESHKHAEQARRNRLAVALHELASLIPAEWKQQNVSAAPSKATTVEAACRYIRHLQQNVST
Oligonucleotide | fluorescence intensity
CGTCCTAGTGATTGTCACTAGACTTCCATGAGGAAG | 3990 a.u.
ATATTTTATCATCCACACGTGGTGATATTTCAACGA | 15400 a.u.
ATACAGCCCACTGCACACATGGTGATAAAGAGAATT | 9390 a.u.
ATTAGGGGACCTACACGCCTGAAAGTTTTTTAGATA | 5540 a.u.
CTAACGAAGGTTTGACGCGTGGGTGACAAGCCAAGT | 9790 a.u.
GTCAACAAAGACCCCATCATGACAAAAGCTCAGAAG | 4190 a.u.
CGTCCTAGTGATTGTAACGTGGGTGCCATGAGGAAG | 11200 a.u.
GAAGAACAAATTTTCCACATGCTTGTGCCTGCTTTA | 7810 a.u.
TATGTACGCCTTTTCCGCGTGCGATGGTCTTTACCG | 8500 a.u.
CTAACGAAGGTTTGAGGGGTGGGTGACAAGCCAAGT | 4020 a.u.
AGGGCAGCGCGCGACCGCGTGTCCTTTCACAGCGCA | 9440 a.u.
GAAATAAAAGTACCTTCCGTGATGGTCTTGGTACCA | 3470 a.u.
TCAAGGCAAACGGGACATGTGGGGAGTTCGACTTTT | 11100 a.u.
CCAGTCCCTCAGCACCACGTGGGACTTAGGGGCAAA | 15800 a.u.
GAAAGCACTGGCAAGAACGTGTTGAAGTGCACTTCG | 11000 a.u.
CTTCTGTAAATTTGACTGGTGGGTGGACGCGCCCCG | 4310 a.u.
CTATTCAGGTTTCTGGGCGTGGGACAGTTGGTAACA | 7490 a.u.
CTAACGAAGGTTTGTCACAGTACTTACAAGCCAAGT | 3540 a.u.
TTCTGCAGGGCCCGGCCCGGGTCGTCCGGAAAAAGA | 2310 a.u.

Sample 3 — technique: RNA Bind-n-Seq; molecule type: RNA; sample: in vitro; concentration: 365 nM; reference: no-protein control; reading: higher = stronger binding
Target: RNA binding protein fox-1 homolog 2, RRM domain, GST-SBP tag (RBFOX2, Homo sapiens, UniProt O43251-10, residues 100-194)
Notes: natural RNA segment, single round, ends assumed
Shared flanks, not repeated: GGGAGUUCUACAGUCCGACGAUC … UGGAAUUCUCGGGUGCCAA
Residues (chain): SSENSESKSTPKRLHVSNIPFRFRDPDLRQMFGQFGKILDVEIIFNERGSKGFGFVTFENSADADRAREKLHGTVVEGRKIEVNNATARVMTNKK
Oligonucleotide | RBNS enrichment (R)
GUGAAUAUGUUUGUUGCUACUUACAAUCCCGACCUGUUAGUCCCAGUAGUUUUGUUUUAACAUGGUCUUUUUCAACUUUGUUUCCUGUUUAACUACAGAUGACUUCUGUU | 0.333
UGAAGGGCCGGGCGUGCCUCUCUUGGUGUUGCAUGCUCGUGACACUCAAGAAAUUUUGAACUGAUGAGGGAGGAAGACUGGGGAAAGAAAGAAAGCACACACAGGUACUG | 3.75
GGAAAAAAUCCAAUUCAUUUGACCUAAAAACAAGCCUCAAGUUUAAAACCAAGCUCACGUUUUUCUUAAGGGAAAAAUUUUCUUUCUUAAACUUACAUCUAGCAACUUGG | 0.363
CAGCGUUAUGGUGGGAGCCGCUUCCUGUUCUGUGAACCCCAGGCAGGCUUGACUUCCUAUGGUGUUAUUCUGGAACAUGCUGCCACGAGUCCCGGCUUUUGGAGUCCCAG | 0.269
AGAUGUCCUCAGGUCUUUUCCAUCUUCAGUUUCUAUGACUGUGGAAUAAAUGUUCAGAUAGAAACUUACUUUUGGAUGUACUGCUGGCUUUGUCUUUGGGGAUUCAAAUG | 0.533
GGGAAAAAGGUUGUUACCUCAAAGUCAUUGCUUCUUUCCUGGCUGGGUCACAGGGUGAAGAGAUGAAGGUGUCUGAUGUAUAUAGACAAUUAGGGAAAAAUGAGCGGCAA | 0.928
CUGUUUUUUAUAUGUAAAAACAAAACAAGAAAAAUAGAGAAUUCUACAUACUAAAUCUCUCUCCUUUUUUAAUUUUAAUAUUUGUUAUCAUUUAUUUAUUGGUGCUACUG | 1.01
AUUACUUUCCUUGAUCAAAAAAAUUAACACUGGGGAAGGCUGGAAUCACUUGAGGGGACUAUAAUGCAGUAUUUGCACCCCAAGAUAUUUACCUUAAAGUGGAAUCAGAA | 0.481

Sample 4 — technique: EMSA with sequencing; molecule type: double-stranded DNA, one strand shown; sample: in vitro; concentration: 10 and 20 nM; reference: negative control set to 0; reading: higher = stronger binding
Target: Hepatocyte nuclear factor 3-alpha (Foxa1, Mus musculus, UniProt P35582, residues 1-468, full length assumed)
Notes: whole designed probe, mean of two concentrations, ends assumed
Shared flanks, not repeated: GTGAGCGGTGCCCATTGATGGGGAAC … TTTCACTGGGATCGTGGGGAC
Residues (chain): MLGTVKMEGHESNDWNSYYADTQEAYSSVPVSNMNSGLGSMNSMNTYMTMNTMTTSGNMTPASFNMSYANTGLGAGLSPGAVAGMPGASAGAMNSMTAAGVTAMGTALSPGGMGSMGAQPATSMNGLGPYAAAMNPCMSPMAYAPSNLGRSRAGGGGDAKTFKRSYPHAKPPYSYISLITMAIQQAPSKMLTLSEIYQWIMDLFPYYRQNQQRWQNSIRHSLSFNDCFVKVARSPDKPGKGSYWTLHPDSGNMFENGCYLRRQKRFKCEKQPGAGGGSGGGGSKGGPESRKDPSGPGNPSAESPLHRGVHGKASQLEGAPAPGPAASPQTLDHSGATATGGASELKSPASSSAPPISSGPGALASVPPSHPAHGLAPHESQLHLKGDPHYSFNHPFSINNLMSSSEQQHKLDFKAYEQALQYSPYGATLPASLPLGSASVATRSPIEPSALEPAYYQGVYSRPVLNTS
Oligonucleotide | normalised bound fraction
TGTGAGCTTGTTTGTTCACTGAAAGCACTCATCATAAGCCTCATCAATATAAAAACTCTTGGTAGGACCAAGGGCAAACTAAGCTGAAGATCAAGATTGCATAGTTCACCTGCAACTTACCAACGTAGTTCAGAATAGAGTATGTCAAACCACCTTATAAAAACTGGGGCATCTGAAGGCATAAAAGTGTTCA | 0.225 ratio
ATCTTCCCCCTCTTCCTTGCCCCACCAGCTCACCTTCCCGGGTATATTGGAGATAGGAAATTAATATAAGCCGGCATTCGTTAACCCTCTTCTGGCGCAAACTGCCAGAGCAAACAGATCTAACATGGTCCTTTGGCGACGCCAGGCTCCGGGAGAGCAAAGCACCGTGTCAGGGCCATGATCCGGGGTGGCC | 0.163 ratio
ATCTTACCCTTGCTGGGAGTAAACAAAGTTATAAACAGTTGTTTTAAAAAAATAGTTGGTTTCAGATGAAAAATTTCTGTATTCAATTTGTCTTGTGTACCTAGAATGCCACGGTAGCACTTCTCCCCCAGGGAAATATGTTGGACATTTCTGTTTCAGTGTACCGCCTGTCACTAATGCCATGGAAACCCAG | 0.169 ratio
GAGTGAGTAAGTGAGTGTGTGTGTGTGTGTGTGTGTGTGTGTGTGTGTGTGTGTGCTGGAGGTATGGCAGCTACCTCTTGCACATAATATTTGTGTGTACATATGTATATATGTGTGTGTATATATATGTGTGTATGTGTATATATACGCACATATATGTGCGTGTATGTGTGTATATACACACGTATGTGTG | 0.31 ratio
GAGCTGCTTGCAATTGAGTTGTATGTATGCTTCCACTTAATACGTCCTGCCGAGCCTGTAAGCCAACAGGAATCTGCCCCACTTCCGGCTCTGTGTTTACCTACTCTCTTTTTATGTCTTATTCCCAGAATGACTGGGGACCAAAGGAATCCTTTGCAGGAGTTTTCTCCAGACAGACAGTTCCACATGCTAG | 0.241 ratio

For quick reference, copied from above (sample 3):
Oligonucleotide | RBNS enrichment (R)
GGGAAAAAGGUUGUUACCUCAAAGUCAUUGCUUCUUUCCUGGCUGGGUCACAGGGUGAAGAGAUGAAGGUGUCUGAUGUAUAUAGACAAUUAGGGAAAAAUGAGCGGCAA | 0.928
CAGCGUUAUGGUGGGAGCCGCUUCCUGUUCUGUGAACCCCAGGCAGGCUUGACUUCCUAUGGUGUUAUUCUGGAACAUGCUGCCACGAGUCCCGGCUUUUGGAGUCCCAG | 0.269
GGAAAAAAUCCAAUUCAUUUGACCUAAAAACAAGCCUCAAGUUUAAAACCAAGCUCACGUUUUUCUUAAGGGAAAAAUUUUCUUUCUUAAACUUACAUCUAGCAACUUGG | 0.363
AUUACUUUCCUUGAUCAAAAAAAUUAACACUGGGGAAGGCUGGAAUCACUUGAGGGGACUAUAAUGCAGUAUUUGCACCCCAAGAUAUUUACCUUAAAGUGGAAUCAGAA | 0.481
AGAUGUCCUCAGGUCUUUUCCAUCUUCAGUUUCUAUGACUGUGGAAUAAAUGUUCAGAUAGAAACUUACUUUUGGAUGUACUGCUGGCUUUGUCUUUGGGGAUUCAAAUG | 0.533
